Measurements pooled from the literature.
Numbered parts are unrelated; each lists some results of a single study. Substitutions count along the parent as printed.

Set 1 — target: CCND1, cyclin fold, Cln2 fusion (human); technique: yeast growth competition, sequencing; sample: yeast; notes: strong parent motif; reference: not given; direction: higher = stronger binding; quantity: normalised enrichment score
Starting sequence: RBL2 docking peptide (human); STTRRRLFVENDS; partner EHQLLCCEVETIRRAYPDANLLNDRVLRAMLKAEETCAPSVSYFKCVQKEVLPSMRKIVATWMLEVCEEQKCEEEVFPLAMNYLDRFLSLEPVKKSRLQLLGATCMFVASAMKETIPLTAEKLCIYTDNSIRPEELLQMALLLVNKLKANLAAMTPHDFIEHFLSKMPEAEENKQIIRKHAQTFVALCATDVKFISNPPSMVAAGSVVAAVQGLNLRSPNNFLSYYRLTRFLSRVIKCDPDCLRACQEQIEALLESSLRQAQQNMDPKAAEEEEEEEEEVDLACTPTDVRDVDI
STTRRRLFVVNDS [E10V]: 0.486
DTTRRRLFVENDS [S1D]: 0.503
TTTRRRLFVENDS [S1T]: 0.503
FTTRRRLFVENDS [S1F]: 0.00582
STTRVRLFVENDS [R5V]: 0.389
STTRRRCFVENDS [L7C]: -0.111
STPRRRLFVENDS [T3P]: 1.16
STTRRRLFVQNDS [E10Q]: -0.207

Set 2 — technique: RNAcompete; molecule type: RNA; sample: in vitro; concentration: 20 nM; notes: 7-mer, probes averaged, single round; reference: mean of 7-mers; direction: higher = stronger binding; quantity: 7-mer Z-score
Target: PABPC1L2, full length, GST fusion (mouse, UniProt A0ABA7IW68)
Residues (chain): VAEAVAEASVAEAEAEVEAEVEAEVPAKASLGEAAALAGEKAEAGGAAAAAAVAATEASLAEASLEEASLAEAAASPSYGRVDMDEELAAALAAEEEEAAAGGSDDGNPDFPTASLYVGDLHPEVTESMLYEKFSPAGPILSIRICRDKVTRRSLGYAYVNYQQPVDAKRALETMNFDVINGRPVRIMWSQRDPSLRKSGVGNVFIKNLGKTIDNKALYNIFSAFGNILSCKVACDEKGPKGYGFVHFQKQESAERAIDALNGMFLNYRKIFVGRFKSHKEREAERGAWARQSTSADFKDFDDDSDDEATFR
ACCUCUU: -0.273
ACCGUAA: -0.103
CCGCAGA: 0.0424
AGGUCUA: -0.0844
UCUCUCC: -0.438
CUAUUAA: 0.209
CCAGGGG: 0.169
UCGAUAG: -0.209
UAUCAGG: -0.0935
AGUGUUA: -0.155

Set 3 — technique: RNA Bind-n-Seq; molecule type: RNA; sample: in vitro; concentration: 200 nM; notes: whole 134-nt RNA, ends assumed; added: 150 mM KCl; reference: input library; direction: higher = stronger binding; quantity: log2 enrichment
Target: Ras GTPase-activating protein-binding protein 1, full length (G3BP1, Homo sapiens, UniProt Q13283)
Sequence of UniProt Q13283 (whole entry, looked up): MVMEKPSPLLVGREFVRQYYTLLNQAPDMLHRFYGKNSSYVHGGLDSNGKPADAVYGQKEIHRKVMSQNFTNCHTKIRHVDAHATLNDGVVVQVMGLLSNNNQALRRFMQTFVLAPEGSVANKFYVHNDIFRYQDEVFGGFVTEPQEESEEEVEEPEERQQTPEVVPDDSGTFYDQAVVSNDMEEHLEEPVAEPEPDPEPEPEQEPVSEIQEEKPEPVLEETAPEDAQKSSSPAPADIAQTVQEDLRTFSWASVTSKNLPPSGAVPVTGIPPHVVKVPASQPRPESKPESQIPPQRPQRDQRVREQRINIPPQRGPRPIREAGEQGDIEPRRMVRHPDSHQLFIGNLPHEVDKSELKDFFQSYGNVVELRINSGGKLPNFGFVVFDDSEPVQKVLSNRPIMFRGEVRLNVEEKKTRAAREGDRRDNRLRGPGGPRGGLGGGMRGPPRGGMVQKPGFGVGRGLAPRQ
Constant ends, left off below: GGGAGUUCUACAGUCCGACGAUC … UGGAAUUCUCGGGUGUCAAGG
CCUGUGCUACACAUCGUAUGUACCGAAUCGGCCCCCCCGGGCCCCCCCGGGGCCCCCCCGGAAAGUAUUAUGUUACGCCGUUCGGAUCUG: -0.387
UGGCCCUGGUGGCAUGCGGUGAGGAAGAGGUGGCCUCAUGGAUCGUGGUGGUCCCGGUGGAAUGUUCAGAGGUGGCCGUGGUGGAGACAG: 0.307
AGUCCUGUGCUACACAUCGUAUGUACCGAAUCGGUUUUUGGGGUUUUUGGUUUUUGGGAAAGUAUUAUGUUACGCCGUUCGGAUCUGCAC: -1.09
AGUCCUGUGCUACACAUCGUAUGUACCGAAUCGGGUGGGUUUUUUUGGGUUUUUGGGAAAGUAUUAUGUUACGCCGUUCGGAUCUGCACU: -0.206
CUCAAGUCCUGUGCUACACAUCGUAUGUACCGAAUCGGAAAAAGGUUUGGUGGAAAGUAUUAUGUUACGCCGUUCGGAUCUGCACUUCCA: -0.613
CAAGUCCUGUGCUACACAUCGUAUGUACCGAAUCGGGGUGGGGUUUGGGGAGGGGAAAGUAUUAUGUUACGCCGUUCGGAUCUGCACUUC: 1.29
UUCGAAGAGGUUGUGUACCAGGCCAUGGGUGAGUGCCCGGGCCACCGAGGCCACGUGCCUCCACGAGGGGCUGCCUAUGCCCCACCCUGG: -0.653
AAGUCCUGUGCUACACAUCGUAUGUACCGAAUCGGUUUUGGUUUUGGGGUUUUGGGGAAAGUAUUAUGUUACGCCGUUCGGAUCUGCACU: -0.732
UGGCCCUGGUCGCAUGCGGGGAGGAAGAGGUGGCCUCAUGGAUCGUGGUGGUCCCGGUGGAAUGUUCAGAGGUGGCCGUGGUGGAGACAG: 0.133
UCAAGUCCUGUGCUACACAUCGUAUGUACCGAAUCGGAAGGGAAGGGGAAGGGGAAAGUAUUAUGUUACGCCGUUCGGAUCUGCACUUCC: 0.986

Further values, each from its own experiment
PhoQ, residues 284 288 289 292 302 303 ALSMDL — fold induction (PhoP, residues 12 14 15 18 19 LYFRQ (Escherichia coli, UniProt P23836); Sort-seq, measured: YFP reporter; E. coli; PhoQ-PhoP variant library, added: 10 µM Mg2+; reference: high Mg2+ state, higher = stronger signaling): 3.41

A few entries again (set 2):
UAUCAGG: -0.0935
CCAGGGG: 0.169
CCGCAGA: 0.0424
